Results from different studies.
Each numbered part is a random draw from the data of one study; scales do not carry over between parts.
Chain of UniProt Q5XXA6 (whole entry, unmodified, looked up): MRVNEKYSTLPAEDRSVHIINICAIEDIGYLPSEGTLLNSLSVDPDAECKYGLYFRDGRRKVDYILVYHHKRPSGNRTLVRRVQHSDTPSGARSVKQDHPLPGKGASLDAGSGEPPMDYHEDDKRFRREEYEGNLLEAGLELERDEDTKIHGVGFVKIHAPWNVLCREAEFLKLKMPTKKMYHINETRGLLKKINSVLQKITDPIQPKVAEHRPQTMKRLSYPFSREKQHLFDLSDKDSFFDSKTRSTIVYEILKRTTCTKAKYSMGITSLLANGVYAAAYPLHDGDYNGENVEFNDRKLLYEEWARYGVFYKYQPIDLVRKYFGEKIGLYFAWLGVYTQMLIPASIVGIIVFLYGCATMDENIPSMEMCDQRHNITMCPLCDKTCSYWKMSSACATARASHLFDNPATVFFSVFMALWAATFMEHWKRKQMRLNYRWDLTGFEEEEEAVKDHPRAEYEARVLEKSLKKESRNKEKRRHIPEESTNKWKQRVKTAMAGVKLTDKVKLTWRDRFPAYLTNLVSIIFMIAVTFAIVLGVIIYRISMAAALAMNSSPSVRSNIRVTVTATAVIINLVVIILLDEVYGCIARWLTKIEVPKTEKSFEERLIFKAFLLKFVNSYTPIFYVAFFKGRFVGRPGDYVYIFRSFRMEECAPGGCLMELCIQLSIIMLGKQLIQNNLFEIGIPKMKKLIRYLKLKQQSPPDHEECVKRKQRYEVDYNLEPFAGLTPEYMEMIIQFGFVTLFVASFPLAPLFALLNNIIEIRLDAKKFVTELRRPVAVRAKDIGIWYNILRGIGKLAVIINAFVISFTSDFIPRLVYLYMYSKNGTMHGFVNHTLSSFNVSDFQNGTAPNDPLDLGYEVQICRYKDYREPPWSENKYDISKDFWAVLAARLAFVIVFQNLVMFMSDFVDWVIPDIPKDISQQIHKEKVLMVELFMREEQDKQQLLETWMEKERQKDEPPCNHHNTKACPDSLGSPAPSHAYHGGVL
Chain of UniProt O96013 (whole entry, looked up): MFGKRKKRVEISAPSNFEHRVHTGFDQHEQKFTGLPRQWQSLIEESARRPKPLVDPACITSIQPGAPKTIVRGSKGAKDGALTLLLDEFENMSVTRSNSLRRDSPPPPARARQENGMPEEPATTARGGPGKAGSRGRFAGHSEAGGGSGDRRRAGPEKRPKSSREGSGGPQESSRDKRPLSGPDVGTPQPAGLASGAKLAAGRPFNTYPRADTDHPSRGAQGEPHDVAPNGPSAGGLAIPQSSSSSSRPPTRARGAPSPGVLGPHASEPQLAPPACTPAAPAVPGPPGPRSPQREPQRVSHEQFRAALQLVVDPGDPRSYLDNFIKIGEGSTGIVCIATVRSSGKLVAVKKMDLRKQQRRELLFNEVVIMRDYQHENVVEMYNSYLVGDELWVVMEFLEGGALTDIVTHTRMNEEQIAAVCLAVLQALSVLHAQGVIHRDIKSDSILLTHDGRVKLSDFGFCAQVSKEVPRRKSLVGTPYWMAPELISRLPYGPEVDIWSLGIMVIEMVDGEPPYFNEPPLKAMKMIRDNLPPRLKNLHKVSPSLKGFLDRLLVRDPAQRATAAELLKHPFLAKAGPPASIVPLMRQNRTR
Chain of UniProt Q9H093 (whole entry, looked up): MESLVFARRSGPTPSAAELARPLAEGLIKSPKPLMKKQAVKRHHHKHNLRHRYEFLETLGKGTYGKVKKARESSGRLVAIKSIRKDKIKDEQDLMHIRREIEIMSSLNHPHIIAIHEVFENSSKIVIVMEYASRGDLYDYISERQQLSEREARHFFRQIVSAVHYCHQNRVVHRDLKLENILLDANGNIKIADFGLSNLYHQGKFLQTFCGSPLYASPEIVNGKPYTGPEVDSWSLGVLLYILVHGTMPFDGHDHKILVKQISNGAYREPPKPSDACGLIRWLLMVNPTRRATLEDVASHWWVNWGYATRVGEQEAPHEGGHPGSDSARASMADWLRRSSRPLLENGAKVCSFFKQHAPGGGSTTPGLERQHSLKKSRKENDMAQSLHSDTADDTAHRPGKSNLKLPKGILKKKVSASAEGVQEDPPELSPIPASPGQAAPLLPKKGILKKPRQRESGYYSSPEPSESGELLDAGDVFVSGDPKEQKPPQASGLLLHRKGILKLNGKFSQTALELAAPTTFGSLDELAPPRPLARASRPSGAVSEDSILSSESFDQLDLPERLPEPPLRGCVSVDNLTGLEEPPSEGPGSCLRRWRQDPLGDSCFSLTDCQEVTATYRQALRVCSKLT
Chain of UniProt P57058 (whole entry, looked up): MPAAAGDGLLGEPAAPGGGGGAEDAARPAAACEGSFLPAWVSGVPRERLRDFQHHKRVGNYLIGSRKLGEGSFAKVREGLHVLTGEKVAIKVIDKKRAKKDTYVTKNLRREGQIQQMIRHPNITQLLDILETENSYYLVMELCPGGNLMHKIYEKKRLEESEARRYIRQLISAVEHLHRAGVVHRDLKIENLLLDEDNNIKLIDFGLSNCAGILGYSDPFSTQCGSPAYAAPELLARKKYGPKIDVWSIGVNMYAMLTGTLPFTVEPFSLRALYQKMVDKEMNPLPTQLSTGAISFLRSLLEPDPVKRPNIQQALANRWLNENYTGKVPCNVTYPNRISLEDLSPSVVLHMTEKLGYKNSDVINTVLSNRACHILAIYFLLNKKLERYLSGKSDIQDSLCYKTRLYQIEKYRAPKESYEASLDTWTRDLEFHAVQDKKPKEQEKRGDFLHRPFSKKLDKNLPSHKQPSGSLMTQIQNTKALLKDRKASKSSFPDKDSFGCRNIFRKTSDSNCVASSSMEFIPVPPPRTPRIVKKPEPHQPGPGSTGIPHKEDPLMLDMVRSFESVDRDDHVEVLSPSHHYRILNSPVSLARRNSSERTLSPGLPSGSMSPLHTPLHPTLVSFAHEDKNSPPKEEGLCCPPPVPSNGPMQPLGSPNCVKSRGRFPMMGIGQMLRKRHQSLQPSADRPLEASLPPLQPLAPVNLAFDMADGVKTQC
Chain of UniProt Q00526 (whole entry, looked up): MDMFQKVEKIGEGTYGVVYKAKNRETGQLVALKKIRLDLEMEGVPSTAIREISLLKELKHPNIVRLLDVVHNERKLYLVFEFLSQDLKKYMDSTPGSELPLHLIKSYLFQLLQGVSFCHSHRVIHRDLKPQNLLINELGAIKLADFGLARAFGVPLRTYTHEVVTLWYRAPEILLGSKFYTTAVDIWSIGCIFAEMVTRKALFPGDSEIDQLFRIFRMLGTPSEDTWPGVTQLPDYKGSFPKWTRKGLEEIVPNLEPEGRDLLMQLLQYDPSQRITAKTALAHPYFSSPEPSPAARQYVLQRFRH

Sample 1 — Compound: C=CCc1ccc(O)c(-c2ccc(O)c(CC=C)c2)c1; read-out: chloride current
For Anoctamin-1 (ANO1, Homo sapiens, UniProt Q5XXA6, del476-501); whole-cell voltage clamp; 1 µM, wild type, I-V at 20 mV, added: 4 µM Ca2+: normalized current read 0.182.
Anoctamin-1 (ANO1, Homo sapiens, UniProt Q5XXA6, del476-501/R541A); inside-out patch clamp; 10 µM, membrane voltage 40 mV — normalized current: 0.245.
For Anoctamin-1 (ANO1, Homo sapiens, UniProt Q5XXA6, del476-501/F628A); whole-cell voltage clamp; 30 µM, I-V at -80 mV, added: 4 µM Ca2+: normalized current read -0.332.

Sample 2 — species: mouse; sample: microsomes or S9; concentration: 2 µM; time: 0.5 h
`COc1ccc(NC(=O)COCc2ccccc2)cc1` has a remaining compound of 2.41%.
The remaining compound of `CC(C)C(NCc1cc(=O)n(C)c(=O)n1C)c1ccc(C2CCCCC2)cc1` (stereo not drawn) is reported as 0.431%.
The remaining compound of `COc1ccc(N)cc1-n1nnnc1-n1cccn1` is reported as 79.2%.
With `O=C(Nc1ccc2nncn2c1)c1cc(Cl)c2c(c1)OCO2` the remaining compound was 10.3%.

Sample 3 — action: antagonist
Target: Beta-1 adrenergic receptor (ADRB1, Homo sapiens, UniProt P08588)
Chain of UniProt P08588 (whole entry, looked up): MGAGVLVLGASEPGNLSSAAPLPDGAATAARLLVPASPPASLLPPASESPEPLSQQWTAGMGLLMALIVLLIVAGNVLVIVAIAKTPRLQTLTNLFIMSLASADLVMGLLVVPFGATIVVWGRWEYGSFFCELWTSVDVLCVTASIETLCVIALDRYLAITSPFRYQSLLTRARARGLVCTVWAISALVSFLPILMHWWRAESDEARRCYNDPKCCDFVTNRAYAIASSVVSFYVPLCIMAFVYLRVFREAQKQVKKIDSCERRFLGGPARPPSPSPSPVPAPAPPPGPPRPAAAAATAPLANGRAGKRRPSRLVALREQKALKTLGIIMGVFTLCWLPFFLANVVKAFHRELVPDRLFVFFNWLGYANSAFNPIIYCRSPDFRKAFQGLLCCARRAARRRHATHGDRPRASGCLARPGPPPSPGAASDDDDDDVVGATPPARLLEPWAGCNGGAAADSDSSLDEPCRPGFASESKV
`O=C1COc2ccc(-c3ccccc3)nc2CN1` has an IC50 of no less than 100 µM.
`CCC(c1ccccc1)N1CCN(CC(C)O)CC1` (stereo not drawn) has an IC50 of no less than 100 µM.
`Oc1ccccc1N1CCN(c2ccc3ccccc3n2)CC1` gave an IC50 of no less than 100 µM.
The IC50 of `c1ccc(-c2nc(-c3cnc4ccccc4n3)cs2)cc1` is reported as no less than 100 µM.
With `COc1cc(NC(=O)NCCN2CCN(c3ccccc3)CC2)cc(OC)c1OC` the IC50 was no less than 100 µM.
The IC50 of `c1ccc2nc(N3CCCC(COc4ccncc4)C3)ccc2c1` (stereo not drawn) is reported as no less than 100 µM.
`COc1cccc(F)c1C(=O)Nc1ccc2ccccc2n1` gave an IC50 of no less than 100 µM.

Sample 4 — read-out: cell-free assay; technique: competition with immobilised ligand; concentration: 1 µM
SMILES: CC(=O)C1=C(C)N(c2cccc(C(F)(F)F)c2)C(=O)N[C@@H]1c1ccc(C#N)nc1
The remaining binding was 91.5% (Ribosomal protein S6 kinase alpha-1, C-terminal kinase domain (RPS6KA1, Homo sapiens, UniProt Q15418)).
It gave 80.1% for remaining binding (Hormonally up-regulated neu tumor-associated kinase (HUNK, Homo sapiens, UniProt P57058)).
The remaining binding was 78.2% (Epidermal growth factor receptor (EGFR, Homo sapiens, UniProt P00533)).
The remaining binding was 100% (MAP/microtubule affinity-regulating kinase 3 (MARK3, Homo sapiens, UniProt P27448)).
The remaining binding was 90.6% (RAC-gamma serine/threonine-protein kinase (AKT3, Homo sapiens, UniProt Q9Y243)).
It gave 100% for remaining binding (Tyrosine-protein kinase BTK (BTK, Homo sapiens, UniProt Q06187)).
Serine/threonine-protein kinase PAK 4 (PAK4, Homo sapiens, UniProt O96013) — remaining binding: 97.9%.
Interleukin-1 receptor-associated kinase 4 (IRAK4, Homo sapiens, UniProt Q9NWZ3) — remaining binding: 100%.
For NUAK family SNF1-like kinase 2 (NUAK2, Homo sapiens, UniProt Q9H093): remaining binding read 100%.
Cyclin-dependent kinase 3 (CDK3, Homo sapiens, UniProt Q00526) — remaining binding: 100%.
The remaining binding was 81.1% (Macrophage-stimulating protein receptor (MST1R, Homo sapiens, UniProt Q04912)).
The remaining binding was 100% (Serine/threonine-protein kinase MARK2 (MARK2, Homo sapiens, UniProt Q7KZI7)).

Mixed results
With `CC(=O)N[C@@H](Cc1c[nH]c2ccccc12)C(=O)N[C@@H](CCC(=O)C=[N+]=[N-])C(=O)OC(C)C` the tumour volume was 0 mm3 (mice, MC-38 tumour rechallenge; 1 mg/kg, day 14 after injection).

For quick reference, copied from above (sample 2):
The remaining compound of `COc1ccc(N)cc1-n1nnnc1-n1cccn1` is reported as 79.2%.
With `O=C(Nc1ccc2nncn2c1)c1cc(Cl)c2c(c1)OCO2` the remaining compound was 10.3%.
The remaining compound of `CC(C)C(NCc1cc(=O)n(C)c(=O)n1C)c1ccc(C2CCCCC2)cc1` (stereo not drawn) is reported as 0.431%.
`COc1ccc(NC(=O)COCc2ccccc2)cc1` has a remaining compound of 2.41%.
